{"data": "Published values gathered from unrelated publications", "U2AF2": "U2AF2 148-342 (Homo sapiens, UniProt P26368)", "B1": "emrE (Escherichia coli, UniProt P23895); sequence looked up; chain MNPYIYLGGAILAEVIGTTLMKFSEGFTRLWPSVGTIICYCASFWLLAQTLAYIPTGIAYAIWSGVGIVLISLLSWGFFGQRLDLPAIIGMMLICAGVLIINLLSRSTPH", "B2": "Gm4951 S186A/R189A/N190A/E191A (Mus musculus, UniProt Q3UED7); sequence looked up; chain MGQLFSSRRSEDQDLSSSFIEYLKECEKGINIIPHEIITSIEINMKKGNIQEVNSTVRDMLREIDNTPLNVALTGETGSGKSSFINTLRGIGHEEGGAAHTGVTDKTKERHPYEHPKMPNVVFWDLPGTGSEDFQPKTYLEKMKFYEYDFFIIISATRFKKNDIDLAKAIGIMKKEFYFVRTQVDADLAAAEDFKPQTFDREKVLQDIRLNCVNTFRENGIAEPPIFLISNKNVCHYDFPVLMDKLISDLPVFKRQNFMFSLPNITDSVIEKKRNFLRWKTWLEGFADGLLSFFLESDLETLEKSMKFYRTVFGVDDASLQRLARAWEIDQVDQVRAMIKSPAVFTPTDEETIQERLSRYNQEFCLANGYLLPKNHCREILYLKLYFLDMVTEDAKTLLKEICLRN", "B3": "lexA K156A (Escherichia coli, UniProt P0A7C2); sequence looked up; chain MKALTARQQEVFDLIRDHISQTGMPPTRAEIAQRLGFRSPNAAEEHLKALARKGVIEIVSGASRGIRLLQEEEEGLPLVGRVAAGEPLLAQQHIEGHYQVDPSLFKPNADFLLRVSGMSMKDIGIMDGDLLAVHKTQDVRNGQVVVARIDDEVTVARLKKQGNKVELLPENSEFKPIVVDLRQQSFTIEGLAVGVIRNGDWL", "B4": "dlg1 1-97 R44A (Drosophila melanogaster, UniProt P31007); sequence looked up; chain MPVKKQEAHRALELLEDYHARLSEPQDRALRIAIERVIRIFKSALFQALLDIQEFYELTLLDDSKSIQQKTAETLQIATKWEKDGQAVKIADFIKSS", "B5": "S100P (Homo sapiens, UniProt P25815); sequence looked up; chain MTELETAMGMIIDVFSRYSGSEGSTQTLTKGELKVLMEKELPGFLQSGKDKDAVDKLLKDLDANGDAQVDFSEFIVFVAAITSACHKYFEKAGLK", "B6": "klc-2 (Caenorhabditis elegans, UniProt P46822); sequence looked up; chain MSNMSQDDVTTGLRTVQQGLEALREEHSTISNTLETSVKGVKEDEAPLPKQKLSQINDNLDKLVCGVDETSLMLMVFQLTQGMDAQHQKYQAQRRRLCQENAWLRDELSSTQIKLQQSEQMVAQLEEENKHLKYMASIKQFDDGTQSDTKTSVDVGPQPVTNETLQELGFGPEDEEDMNASQFNQPTPANQMAASANVGYEIPARLRTLHNLVIQYASQGRYEVAVPLCKQALEDLEKTSGHDHPDVATMLNILALVYRDQNKYKEAANLLNEALSIREKCLGESHPAVAATLNNLAVLFGKRGKFKDAEPLCKRALEIREKVLGDDHPDVAKQLNNLALLCQNQGKYEEVEKYYKRALEIYESKLGPDDPNVAKTKNNLSSAYLKQGKYKEAEELYKQILTRAHEREFGQISGENKPIWQIAEEREENKHKGEGATANEQAGWAKAAKVDSPTVTTTLKNLGALYRRQGKYEAAETLEDVALRAKKQHEPLRSGAMGGIDEMSQSMMASTIGGSRNSMTTSTSQTGLKNKLMNALGFNS", "B7": "clpC E280A/E618A (Bacillus subtilis, UniProt P37571); chain MMFGRFTERAQKVLALAQEEALRLGHNNIGTEHILLGLVREGEGIAAKALQALGLGSEKIQKEVESLIGRGQEMSQTIHYTPRAKKVIELSMDEARKLGHSYVGTEHILLGLIREGEGVAARVLNNLGVSLNKARQQVLQLLGSNETGSSAAGTNSNANTPTLDSLARDLTAIAKEDSLDPVIGRSKEIQRVIEVLSRRTKNNPVLIGEPGVGKTAIAEGLAQQIINNEVPEILRDKRVMTLDMGTVVAGTKYRGEFEDRLKKVMDEIRQAGNIILFIDALHTLIGAGGAEGAIDASNILKPSLARGELQCIGATTLDEYRKYIEKDAALERRFQPIQVDQPSVDESIQILQGLRDRYEAHHRVSITDDAIEAAVKLSDRYISDRFLPDKAIDLIDEAGSKVRLRSFTTPPNLKELEQKLDEVRKEKDAAVQSQEFEKAASLRDTEQRLREQVEDTKKSWKEKQGQENSEVTVDDIAMVVSSWTGVPVSKIAQTETDKLLNMENILHSRVIGQDEAVVAVAKAVRRARAGLKDPKRPIGSFIFLGPTGVGKTELARALAESIFGDEESMIRIDMSEYMEKHSTSRLVGSPPGYVGYDEGGQLTEKVRRKPYSVVLLDAIEKAHPDVFNILLQVLEDGRLTDSKGRTVDFRNTILIMTSNVGASELKRNKYVGFNVQDETQNHKDMKDKVMGELKRAFRPEFINRIDEIIVFHSLEKKHLTEIVSLMSDQLTKRLKEQDLSIELTDAAKAKVAEEGVDLEYGARPLRRAIQKHVEDRLSEELLRGNIHKGQHIVLDVEDGEFVVKTTAKTN", "B8": "S100A8 (Homo sapiens, UniProt P05109); sequence looked up; chain MLTELEKALNSIIDVYHKYSLIKGNFHAVYRDDLKKLLETECPQYIRKKGADVWFKELDINTDGAVNFQEFLILVIKMGVAAHKKSHEESHKE", "B9": "clcA C85A/H234C (Escherichia coli, UniProt P37019); chain MKTDTPSLETPQAARLRRRQLIRQLLERDKTPLAILFMAAVVGTLVGLAAVAFDKGVAWLQNQRMGALVHTADNYPLLLTVAFLASAVLAMFGYFLVRKYAPEAGGSGIPEIEGALEDQRPVRWWRVLPVKFFGGLGTLGGGMVLGREGPTVQIGGNIGRMVLDIFRLKGDEARHTLLATGAAAGLAAAFNAPLAGILFIIEEMRPQFRYTLISIKAVFIGVIMSTIMYRIFNCEVALIDVGKLSDAPLNTLWLYLILGIIFGIFGPIFNKWVLGMQDLLHRVHGGNITKWVLMGGAIGGLCGLLGFVAPATSGGGFNLIPIATAGNFSMGMLVFIFVARVITTLLCFSSGAPGGIFAPMLALGTVLGTAFGMVAVELFPQYHLEAGTFAIAGMGALLAASIRAPLTGIILVLEMTDNYQLILPMIITGLGATLLAQFTGGKPLYSAILARTLAKQEAEQLARSKAASASENT", "B10": "Ikbkg 1-355 C54S/K285N (Mus musculus, UniProt O88522); sequence looked up; chain MNKHPWKNQLSEMVQPSGGPAEDQDMLGEESSLGKPAMLHLPSEQGTPETLQRSLEENQELRDAIRQSNQMLRERCEELLHFQVSQREEKEFLMCKFQEARKLVERLSLEKLDLRSQREQALKELEQLKKCQQQMAEDKASVKAQVTSLLGELQESQSRLEAATKDRQALEGRIRAVSEQVRQLESEREVLQQQHSVQVDQLRMQNQSVEAALRMERQAASEEKRKLAQLQAAYHQLFQDYDSHIKSSKGMQLEDLRQQLQQAEEALVAKQELIDKLKEEAEQHNIVMETVPVLKAQADIYKADFQAERHAREKLVEKKEYLQEQLEQLQREFNKLKVGCHESARIEDMRKRHVE", "note": "± gives the spread as reported.", "UniProt P26368, sequence (whole entry, unmodified, looked up)": "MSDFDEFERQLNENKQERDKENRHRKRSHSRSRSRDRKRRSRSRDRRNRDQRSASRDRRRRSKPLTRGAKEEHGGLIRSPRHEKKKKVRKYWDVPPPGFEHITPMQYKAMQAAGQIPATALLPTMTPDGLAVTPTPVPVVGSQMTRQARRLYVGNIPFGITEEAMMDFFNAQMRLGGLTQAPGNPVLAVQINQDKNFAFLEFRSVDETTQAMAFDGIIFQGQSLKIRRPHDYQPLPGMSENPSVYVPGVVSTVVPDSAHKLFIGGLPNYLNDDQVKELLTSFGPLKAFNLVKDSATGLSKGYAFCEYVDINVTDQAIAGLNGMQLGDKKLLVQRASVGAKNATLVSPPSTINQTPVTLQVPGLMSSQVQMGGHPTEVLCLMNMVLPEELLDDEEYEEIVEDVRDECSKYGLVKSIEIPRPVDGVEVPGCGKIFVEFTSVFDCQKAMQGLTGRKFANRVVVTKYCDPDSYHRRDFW", "UniProt P13393, sequence (whole entry, looked up)": "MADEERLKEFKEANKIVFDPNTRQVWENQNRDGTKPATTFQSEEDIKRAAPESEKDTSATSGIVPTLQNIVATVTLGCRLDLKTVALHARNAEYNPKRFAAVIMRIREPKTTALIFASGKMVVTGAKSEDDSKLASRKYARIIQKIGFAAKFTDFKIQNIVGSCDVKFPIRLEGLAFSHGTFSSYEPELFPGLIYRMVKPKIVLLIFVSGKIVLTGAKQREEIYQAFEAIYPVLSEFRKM"}
{"Molecule": "ATGATGTCCTTTTCCAAAAACGCCACTCCTAGAGCTCAAGTCAATCGGTCC (dsDNA; 5'-amino-C6 primer)", "tested on": "SPT15 full length assumed (Saccharomyces cerevisiae, UniProt P13393)", "test": "array", "test system": "double-stranded DNA, one strand shown", "conditions": "TBP alone", "endpoint": "Kd", "result": "0.032 ± 0.0029 µM"}
{"Molecule": "B1 (emrE)", "tested on": "itself", "test": "AUC", "endpoint": "Kd", "result": "4 ± 2 µM"}
{"Molecule": "B2 (Gm4951 S186A/R189A/N190A/E191A)", "tested on": "itself", "test": "mass photometry", "endpoint": "binding", "result": "binds"}
{"Molecule": "B3 (lexA K156A)", "tested on": "itself", "test": "cryo-EM", "endpoint": "binding", "result": "binds"}
{"Molecule": "B4 (dlg1 1-97 R44A)", "tested on": "itself", "test": "SEC", "endpoint": "binding", "result": "binds"}
{"Molecule": "B5 (S100P)", "tested on": "itself", "test": "AUC", "endpoint": "Kd", "result": "160 ± 30 µM"}
{"Molecule": "B6 (klc-2)", "tested on": "itself", "test": "mass photometry", "endpoint": "dimer particles", "result": "21 % peak"}
{"Molecule": "B7 (clpC E280A/E618A)", "tested on": "itself", "test": "SEC", "conditions": "together with: ATP", "endpoint": "binding", "result": "binds"}
{"Molecule": "AAUAUUAAA (ssRNA)", "tested on": "U2AF2", "test": "sequencing of bound RNA", "test system": "RNA", "conditions": "motif only", "endpoint": "Kd", "result": "16.4 µM"}
{"Molecule": "B8 (S100A8)", "tested on": "itself", "test": "AUC", "conditions": "together with: calcium", "endpoint": "Kd", "result": "8 ± 2 µM"}
{"Molecule": "AGGCUGUUUUAAUCUCUUCUAA (ssRNA)", "tested on": "U2AF2", "test": "ITC", "test system": "RNA", "endpoint": "Kd", "result": "2.42 ± 0.177 µM"}
{"Molecule": "B9 (clcA C85A/H234C)", "tested on": "itself", "test": "FRET", "conditions": "subunit exchange", "endpoint": "exchange subunit half-time", "result": "8.9 ± 1.8 days"}
{"Molecule": "B10 (Ikbkg 1-355 C54S/K285N)", "tested on": "itself", "test": "SEC-MALS", "endpoint": "Kd", "result": "27.5 µM"}
{"note": "For quick reference, copied from above:"}
{"Molecule": "ATGATGTCCTTTTCCAAAAACGCCACTCCTAGAGCTCAAGTCAATCGGTCC (dsDNA; 5'-amino-C6 primer)", "tested on": "SPT15 full length assumed (Saccharomyces cerevisiae, UniProt P13393)", "test": "array", "test system": "double-stranded DNA, one strand shown", "conditions": "TBP alone", "endpoint": "Kd", "result": "0.032 ± 0.0029 µM"}
{"Molecule": "B1 (emrE)", "tested on": "itself", "test": "AUC", "endpoint": "Kd", "result": "4 ± 2 µM"}
